{"data": "Measured values from different studies", "BRD4 BD1": "Bromodomain-containing protein 4, BD1 (BRD4, Homo sapiens, UniProt O60885)", "BRD4 BD2": "Bromodomain-containing protein 4, BD2 (BRD4, Homo sapiens, UniProt O60885)", "BRD4": "Bromodomain-containing protein 4 (BRD4, Homo sapiens, UniProt O60885)", "note": "Lines come from different studies, so protocols differ. pIC50, pKd: −log10 of the molar value."}
{"Structure (SMILES)": "CN1CCN(CCN2CCCN(c3ccc(Oc4ccc(F)cc4F)c(-c4cn(C)c(=O)c5[nH]ccc45)c3)S2(=O)=O)CC1", "target": "BRD4 BD1", "effect on": "cell-free assay", "technique": "TR-FRET", "endpoint": "pIC50", "result": 9.00}
{"Structure (SMILES)": "Cc1ncsc1-c1ccc([C@@H]2CCCCCCNC(=O)C[C@@H]3N=C(c4ccc(cc4)OCCCCCC(=O)N[C@@H](C(C)(C)C)C(=O)N4C[C@H](O)C[C@H]4C(=O)N2)c2c(sc(C)c2C)-n2c(C)nnc23)cc1", "target": "BRD4 BD2", "effect on": "binding", "technique": "BLI", "endpoint": "pKd", "result": 7.44}
{"Structure (SMILES)": "COC(=O)N1c2ccc3cn(CCc4ccccc4)nc3c2CC[C@@H]1C", "target": "Bromodomain-containing protein 4, BD1 and BD2 (BRD4, Homo sapiens, UniProt O60885)", "effect on": "binding", "mode": "inhibitor", "endpoint": "pIC50", "result": "< 4.60"}
{"Structure (SMILES)": "Cc1ncsc1-c1ccc(CNC(=O)[C@@H]2C[C@@H](O)CN2C(=O)[C@@H](NC(=O)COCC(C)(COCCOCCOCCNC(=O)C[C@@H]2N=C(c3ccc(Cl)cc3)c3c(sc(C)c3C)-n3c(C)nnc32)COCCOCCOCCNC(=O)C[C@@H]2N=C(c3ccc(Cl)cc3)c3c(sc(C)c3C)-n3c(C)nnc32)C(C)(C)C)cc1", "target": "BRD4 BD2", "effect on": "ligand displacement", "technique": "AlphaScreen", "endpoint": "pIC50", "result": 6.69}
{"Structure (SMILES)": "Cn1cc(-c2cc(N3CCCS3(=O)=O)ccc2N[C@H]2CC[C@@](C)(O)CC2)c2cc[nH]c2c1=O", "target": "BRD4 BD1", "effect on": "cell-free assay", "technique": "TR-FRET", "endpoint": "pIC50", "result": 8.91}
{"Structure (SMILES)": "CNC(=O)CCN(Cc1ccc(C(F)F)cc1)C(=O)c1cc2c(OC)ccc(-c3ccc(=O)n(C)c3)c2s1", "target": "BRD4 BD2", "effect on": "binding", "technique": "competition with immobilised ligand", "endpoint": "pKd", "result": 6.02}
{"Structure (SMILES)": "COc1cc(N2CCN(C)CC2)ccc1Nc1ncc2c(n1)N(C)c1ccc(C)cc1C(=O)N2CC(F)(F)F", "target": "BRD4", "effect on": "binding", "technique": "AlphaScreen", "endpoint": "pIC50", "result": "< 5.00"}
{"Structure (SMILES)": "COc1ccccc1OC1=C(Oc2ccccc2OC)C(=O)c2ccccc2C1=O", "target": "BRD4 BD1", "effect on": "BD1 acetylated peptide binding", "mode": "inhibitor", "technique": "HTRF", "endpoint": "pIC50", "result": 6.32}
{"Structure (SMILES)": "Cn1cc(-c2cc(N3CCCCS3(=O)=O)ccc2N[C@H]2CC[C@](C)(O)CC2)c2cc[nH]c2c1=O", "target": "BRD4 BD1", "effect on": "cell-free assay", "technique": "TR-FRET", "endpoint": "pIC50", "result": 8.49}
{"Structure (SMILES)": "COC(=O)CCNc1nc(-c2ccc(Cl)cc2)c2ccccc2n1", "target": "BRD4 BD2", "effect on": "cell-free assay", "technique": "TR-FRET", "endpoint": "pIC50", "result": 4.74}
{"Structure (SMILES)": "COCCN1CCN(c2ccc(Oc3ccc(F)cc3F)c(-c3cn(C)c(=O)c4[nH]ccc34)c2)S1(=O)=O", "target": "BRD4 BD1", "effect on": "cell-free assay", "technique": "TR-FRET", "endpoint": "pIC50", "result": 9.70}
{"Structure (SMILES)": "COCCOCCOCCOC(=O)c1cnc2cc(-c3c(C)noc3C)c(OC)cc2c1N[C@H](C)c1ccccn1", "target": "BRD4", "effect on": "binding", "technique": "ITC", "endpoint": "pKd", "result": 5.82}
{"Structure (SMILES)": "CCNC(=O)c1ccc(CNC(=O)c2cccc(-c3c(C)noc3C)c2)cc1", "target": "BRD4 BD1", "effect on": "binding", "technique": "SPR", "endpoint": "pKd", "result": 5.60}
{"Structure (SMILES)": "COCCN1CCCN(c2ccc(Oc3ccc(F)cc3F)c(-c3cn(C)c(=O)c4[nH]ccc34)c2)S1(=O)=O", "target": "BRD4 BD1", "effect on": "cell-free assay", "technique": "TR-FRET", "endpoint": "pIC50", "result": 9.19}
{"Structure (SMILES)": "Cc1sc2c(c1C)C(c1ccc(Cl)cc1)=N[C@@H](CC(=O)NCCOCCOCCOCCOCCOCCOCCOCCNC(=O)C[C@@H]1N=C(c3ccc(Cl)cc3)c3c(sc(C)c3C)-n3c(C)nnc31)c1nnc(C)n1-2", "target": "BRD4", "effect on": "target engagement", "technique": "NanoBRET", "cells": "HEK293, live", "endpoint": "pIC50", "result": 7.52}
{"Structure (SMILES)": "CCNC(=O)[C@H](C)NC(=O)Cn1cc(-c2c(C)noc2C)cn1", "target": "BRD4 BD1", "effect on": "binding", "technique": "SPR", "endpoint": "pKd", "result": 7.29}
